Experimental data gathered from unrelated publications.
Lines come from different studies, so protocols differ. Numbers after ± are the reported error.

For `CNC(=O)c1ccc(-c2cnn3ccc(C(=O)N(C[C@H]4CCC(=O)O4)c4ccc(OC(F)(F)F)cc4)cc23)cc1`, the EC50 was 0.35 µM (Cryptosporidium parvum; cytopathic effect; HCT-8; 48 h).
`CCOC(=O)N[C@@H](CC(C)C)C(=O)N1CCC[C@H]1C(=O)Nc1ccc(C#CC#Cc2ccc(NC(=O)[C@@H]3CCCN3C(=O)[C@H](CC(C)C)NC(=O)OCC)cc2)cc1` gave an EC50 of 4.3 µM (Hepatitis C virus; viral replication, inhibitor; Huh-5-2, GETYPE1B; replicon).
`interferon alfa` gave an EC50 of 0.085 ± 0.017 µM (hepatitis B virus; HBeAg secretion, inhibitor; HepG2-NTCP cells; 7 days post-infection, treatment from 24 h pre-infection).
`CCN(CC)CCCC(C)Nc1ccnc2cc(Cl)ccc12` (stereo not drawn) gave an EC50 of 0.04 µM (Plasmodium knowlesi; parasite growth; 24 h, blood stage).
`CC1(C)[C@@H](O[C@H]2O[C@H](C(=O)O)[C@@H](O)[C@H](O)[C@H]2O[C@@H]2O[C@H](C(=O)O)[C@@H](O)[C@H](O)[C@H]2O)CC[C@]2(C)[C@H]3C(=O)C=C4[C@@H]5C[C@@](C)(C(=O)O)CC[C@]5(C)CC[C@@]4(C)[C@]3(C)CC[C@@H]12` has an EC50 of 38 µM (Epstein-Barr virus; EA/VCA antigen expression, indirect immunofluorescence; superinfected Raji cells; 24 h).
The EC50 of `Nc1nc2c(ncn2COCCO)c(=O)[nH]1` is reported as 0.87 µM (Human alphaherpesvirus 1; cytopathic effect; HFF, E-377).
`C#CCNC(=O)C(=O)c1c(C)c(C(=O)Nc2ccc(F)c(F)c2)n(C)c1C` has an EC50 of 0.872 ± 0.064 µM (hepatitis B virus; viral replication, chemiluminescence immunoassay, refers to: secreted HBeAg; HBV-infected HepG2-NTCP cells; 7 days post-infection, dosed from 24 h pre-infection).
For `O=C(/C=C/c1ccc(O)c(CN2CCCCC2)c1)c1ccc(F)cc1`, the EC50 was 21.1 µM (Plasmodium knowlesi; parasite growth; 24 h, blood stage).
`CC(C)(c1ccc(O)cc1)c1ccc(O)cc1` has an EC50 of 6.2 µM (SV40; cytoprotection; BSC-40; 120 h).
`O=C(/C=C/c1ccc(CN2CCCCC2)c(O)c1)c1ccc(Br)cc1` has an EC50 of 0.1 µM (Plasmodium knowlesi; parasite growth; 24 h, blood stage).
`CCOC(=O)c1ccc(OCCC2CCN(c3ccc(C)nn3)CC2)cc1` has an EC50 of 0.78 ± 0.32 µM (Enterovirus A71; cytopathic effect, neutral red uptake; RD, Tainan/4643/98; 37 °C, no MgCl2).
`CC1CCN(Cc2ccc(/C=C/C(=O)c3ccc(Cl)cc3)cc2O)CC1` has an EC50 of 31.8 µM (Plasmodium knowlesi; parasite growth; 24 h, blood stage).
`CCOC(=O)C1=C(CN2CCOCC2)NC(c2nccs2)=NC1c1ccc(F)cc1Br` (stereo not drawn) gave an EC50 of 0.153 ± 0.008 µM (hepatitis B virus; viral replication, immunofluorescence, refers to: HBcAg; HBV-infected HepG2-NTCP cells; 7 days post-infection, dosed from 24 h pre-infection).
`COc1cc(C=C2CCCC(=Cc3ccc(O)c(OC)c3)C2=O)ccc1O` gave an EC50 of 8.07 ± 1.52 µM (dengue virus 2; viral replication; BHK-21 DENV2 replicon; 24 h).
With `O=C(/C=C/c1ccc(O)cc1)c1ccc(Cl)cc1` the EC50 was 35.5 µM (Plasmodium knowlesi; parasite growth; 24 h, blood stage).

Repeated from above:
`CCOC(=O)N[C@@H](CC(C)C)C(=O)N1CCC[C@H]1C(=O)Nc1ccc(C#CC#Cc2ccc(NC(=O)[C@@H]3CCCN3C(=O)[C@H](CC(C)C)NC(=O)OCC)cc2)cc1` gave an EC50 of 4.3 µM (Hepatitis C virus; viral replication, inhibitor; Huh-5-2, GETYPE1B; replicon).
